Assay results gathered from unrelated publications.
Each numbered part is a random draw from the data of one study; scales do not carry over between parts. Changes are numbered by the printed parent chain.
Chain of UniProt O75116 (whole entry, looked up): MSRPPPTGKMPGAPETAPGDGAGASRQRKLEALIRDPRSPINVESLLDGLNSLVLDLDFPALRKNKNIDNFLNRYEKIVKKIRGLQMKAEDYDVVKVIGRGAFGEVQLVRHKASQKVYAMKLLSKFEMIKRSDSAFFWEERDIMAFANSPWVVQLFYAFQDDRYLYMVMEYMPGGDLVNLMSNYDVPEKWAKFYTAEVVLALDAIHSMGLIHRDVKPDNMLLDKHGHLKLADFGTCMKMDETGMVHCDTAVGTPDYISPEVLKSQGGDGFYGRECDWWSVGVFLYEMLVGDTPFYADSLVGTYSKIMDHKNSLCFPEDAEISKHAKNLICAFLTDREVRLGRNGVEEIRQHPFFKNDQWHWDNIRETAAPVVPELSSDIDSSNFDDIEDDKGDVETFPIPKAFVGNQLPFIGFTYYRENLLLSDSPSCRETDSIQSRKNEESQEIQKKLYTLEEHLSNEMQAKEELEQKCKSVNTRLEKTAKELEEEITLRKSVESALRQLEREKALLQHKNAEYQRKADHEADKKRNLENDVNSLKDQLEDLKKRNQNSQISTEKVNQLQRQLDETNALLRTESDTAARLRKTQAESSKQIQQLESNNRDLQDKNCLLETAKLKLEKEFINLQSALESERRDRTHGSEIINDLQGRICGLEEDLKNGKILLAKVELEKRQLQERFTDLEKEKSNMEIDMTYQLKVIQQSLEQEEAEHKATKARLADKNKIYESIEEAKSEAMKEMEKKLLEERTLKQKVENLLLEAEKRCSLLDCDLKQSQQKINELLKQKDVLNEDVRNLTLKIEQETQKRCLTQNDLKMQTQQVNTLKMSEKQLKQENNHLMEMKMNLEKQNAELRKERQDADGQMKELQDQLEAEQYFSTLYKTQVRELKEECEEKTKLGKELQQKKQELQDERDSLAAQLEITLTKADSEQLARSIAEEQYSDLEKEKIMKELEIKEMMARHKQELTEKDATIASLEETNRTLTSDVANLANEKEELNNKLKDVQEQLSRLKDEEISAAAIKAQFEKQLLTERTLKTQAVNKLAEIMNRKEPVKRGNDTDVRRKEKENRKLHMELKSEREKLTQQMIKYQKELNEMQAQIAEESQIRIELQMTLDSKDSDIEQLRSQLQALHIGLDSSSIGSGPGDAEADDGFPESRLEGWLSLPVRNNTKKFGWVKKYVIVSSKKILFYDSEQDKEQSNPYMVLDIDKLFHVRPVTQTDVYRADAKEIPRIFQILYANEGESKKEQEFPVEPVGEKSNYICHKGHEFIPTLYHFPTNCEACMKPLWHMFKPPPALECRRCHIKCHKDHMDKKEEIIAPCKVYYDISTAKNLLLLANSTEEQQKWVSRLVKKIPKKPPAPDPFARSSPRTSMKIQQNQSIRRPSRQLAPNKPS
Chain of UniProt Q16513 (whole entry, looked up): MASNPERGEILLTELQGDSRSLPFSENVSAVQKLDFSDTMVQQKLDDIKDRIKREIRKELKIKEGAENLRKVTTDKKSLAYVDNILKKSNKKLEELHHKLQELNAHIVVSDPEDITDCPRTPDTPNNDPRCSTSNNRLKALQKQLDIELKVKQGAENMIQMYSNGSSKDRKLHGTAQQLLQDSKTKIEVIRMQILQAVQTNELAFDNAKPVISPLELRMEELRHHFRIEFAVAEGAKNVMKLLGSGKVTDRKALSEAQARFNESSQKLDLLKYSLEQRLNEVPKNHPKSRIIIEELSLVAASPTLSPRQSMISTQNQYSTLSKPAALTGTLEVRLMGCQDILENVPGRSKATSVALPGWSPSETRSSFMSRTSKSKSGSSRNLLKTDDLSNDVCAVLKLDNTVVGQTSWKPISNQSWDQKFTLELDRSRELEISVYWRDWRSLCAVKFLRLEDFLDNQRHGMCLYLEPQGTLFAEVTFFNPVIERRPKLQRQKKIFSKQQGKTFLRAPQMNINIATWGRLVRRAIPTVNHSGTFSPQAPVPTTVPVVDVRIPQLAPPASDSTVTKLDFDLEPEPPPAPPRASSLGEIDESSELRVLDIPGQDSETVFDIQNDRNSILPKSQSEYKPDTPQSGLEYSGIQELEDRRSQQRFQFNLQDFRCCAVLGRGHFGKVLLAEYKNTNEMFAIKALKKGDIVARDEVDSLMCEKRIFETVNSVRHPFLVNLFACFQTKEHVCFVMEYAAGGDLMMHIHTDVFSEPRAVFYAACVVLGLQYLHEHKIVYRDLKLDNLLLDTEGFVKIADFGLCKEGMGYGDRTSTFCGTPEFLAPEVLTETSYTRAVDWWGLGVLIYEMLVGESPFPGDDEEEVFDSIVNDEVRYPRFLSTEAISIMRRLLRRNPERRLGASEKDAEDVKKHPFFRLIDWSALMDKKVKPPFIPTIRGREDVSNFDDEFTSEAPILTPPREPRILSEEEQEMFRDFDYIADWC
Chain of UniProt Q8TDC3 (whole entry, looked up): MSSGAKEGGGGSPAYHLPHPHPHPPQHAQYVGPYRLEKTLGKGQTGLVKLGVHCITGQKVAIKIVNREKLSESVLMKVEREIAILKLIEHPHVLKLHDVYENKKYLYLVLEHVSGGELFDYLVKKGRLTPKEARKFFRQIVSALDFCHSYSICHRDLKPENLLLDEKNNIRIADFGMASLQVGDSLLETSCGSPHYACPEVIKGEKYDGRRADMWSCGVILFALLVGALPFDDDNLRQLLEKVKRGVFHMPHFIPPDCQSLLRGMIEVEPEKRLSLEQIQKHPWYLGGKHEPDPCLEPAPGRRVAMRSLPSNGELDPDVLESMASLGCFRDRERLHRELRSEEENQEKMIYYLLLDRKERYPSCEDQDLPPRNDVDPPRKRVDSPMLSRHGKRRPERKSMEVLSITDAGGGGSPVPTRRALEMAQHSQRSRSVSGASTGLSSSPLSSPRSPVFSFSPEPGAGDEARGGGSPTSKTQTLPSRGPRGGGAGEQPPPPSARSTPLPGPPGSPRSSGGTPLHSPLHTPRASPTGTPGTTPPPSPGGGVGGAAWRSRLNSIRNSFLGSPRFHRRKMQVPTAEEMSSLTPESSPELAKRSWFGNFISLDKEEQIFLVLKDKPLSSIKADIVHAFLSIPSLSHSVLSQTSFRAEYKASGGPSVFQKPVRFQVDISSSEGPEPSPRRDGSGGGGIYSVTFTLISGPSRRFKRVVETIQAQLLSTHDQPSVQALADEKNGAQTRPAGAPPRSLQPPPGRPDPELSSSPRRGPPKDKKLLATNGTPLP
Chain of UniProt Q9NR20 (whole entry, looked up): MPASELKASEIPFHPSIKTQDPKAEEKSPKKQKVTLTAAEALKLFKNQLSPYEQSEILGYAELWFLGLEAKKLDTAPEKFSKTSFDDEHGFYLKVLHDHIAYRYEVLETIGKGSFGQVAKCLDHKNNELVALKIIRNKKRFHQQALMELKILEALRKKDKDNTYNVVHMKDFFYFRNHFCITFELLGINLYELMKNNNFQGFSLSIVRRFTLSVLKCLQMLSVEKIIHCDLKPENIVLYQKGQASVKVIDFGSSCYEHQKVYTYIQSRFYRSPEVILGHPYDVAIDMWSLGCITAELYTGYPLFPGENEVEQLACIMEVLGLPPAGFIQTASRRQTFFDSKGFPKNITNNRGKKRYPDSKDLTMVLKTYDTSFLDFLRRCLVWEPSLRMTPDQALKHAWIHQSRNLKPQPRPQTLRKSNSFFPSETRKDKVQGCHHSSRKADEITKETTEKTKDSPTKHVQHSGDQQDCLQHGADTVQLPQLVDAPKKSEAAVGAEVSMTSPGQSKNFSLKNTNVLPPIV

Series 1 — target: vanadate, free oxyanion; method: microfluidic competitive inhibition; matrix: in vitro, cell-free expressed; concentration: not given; direction: lower = stronger binding
Setting: derived from inhibition constants, unchanged parent 676 nM
Starting sequence: PafA, mature enzyme, eGFP fusion (Elizabethkingia meningoseptica, UniProt Q9KJX5); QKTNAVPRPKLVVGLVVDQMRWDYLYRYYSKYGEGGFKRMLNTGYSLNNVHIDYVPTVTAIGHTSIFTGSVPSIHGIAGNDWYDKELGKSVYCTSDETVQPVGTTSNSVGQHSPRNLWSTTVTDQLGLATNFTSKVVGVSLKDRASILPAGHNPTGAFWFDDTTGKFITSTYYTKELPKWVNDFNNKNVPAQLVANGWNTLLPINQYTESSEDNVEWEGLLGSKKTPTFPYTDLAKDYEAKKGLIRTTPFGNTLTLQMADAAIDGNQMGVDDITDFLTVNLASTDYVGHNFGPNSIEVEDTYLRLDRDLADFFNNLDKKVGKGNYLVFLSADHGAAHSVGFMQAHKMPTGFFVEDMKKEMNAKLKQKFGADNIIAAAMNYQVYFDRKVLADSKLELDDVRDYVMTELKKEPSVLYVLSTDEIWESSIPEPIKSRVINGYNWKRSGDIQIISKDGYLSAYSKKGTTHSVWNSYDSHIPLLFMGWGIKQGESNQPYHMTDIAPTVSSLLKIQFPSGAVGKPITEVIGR
| Variant | oxyanion analog dissociation constant |
| --- | --- |
| Y24G | 1.3 µM |
| G79V | 1.98 µM |
| V91A | 751 nM |
| L254V | 694 nM |
| V353G | 886 nM |
| K442V | 1.59 µM |
| D311V | 868 nM |
| S474G | 664 nM |

Series 2 — effect on: ligand displacement; concentration: 10 µM
Target: Kappa-type opioid receptor (OPRK1, Homo sapiens, UniProt P41145)
Chain of UniProt P41145 (whole entry, looked up): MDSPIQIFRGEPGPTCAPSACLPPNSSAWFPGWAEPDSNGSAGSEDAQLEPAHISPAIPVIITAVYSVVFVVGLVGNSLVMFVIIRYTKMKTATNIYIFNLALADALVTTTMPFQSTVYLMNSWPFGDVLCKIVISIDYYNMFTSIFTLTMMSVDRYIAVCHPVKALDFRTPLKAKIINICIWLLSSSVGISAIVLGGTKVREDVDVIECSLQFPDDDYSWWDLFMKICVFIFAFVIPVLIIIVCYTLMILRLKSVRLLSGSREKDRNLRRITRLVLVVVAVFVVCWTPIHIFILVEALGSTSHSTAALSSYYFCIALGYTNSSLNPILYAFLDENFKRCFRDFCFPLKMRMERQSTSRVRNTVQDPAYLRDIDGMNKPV
| Compound | inhibition [%] |
| --- | --- |
| CCC(=NO)C(C)=Cc1ccc(F)c(C)c1 | 8.6 |
| COc1cc(-c2cn(C3CCc4c(F)cccc4N(CC(F)(F)F)C3=O)nn2)ccc1-n1cnc(C)c1 (stereo not drawn) | 7.19 |
| O=C(Nc1ccc(Oc2ccc(F)cc2)cc1)N1CCc2ncccc2[C@H]1c1ccc(F)cc1 | 79.3 |
| Cc1ccccc1Oc1cc(-n2c(=O)cc(C(F)(F)F)[nH]c2=O)c2ccccc2c1Cl | 37.5 |
| c1ccc(N2CCN(Cc3nc4ccccc4[nH]3)CC2)nc1 | 45.1 |
| CN(C)c1ncnc(-c2ccc3nc(Nc4cc(CN5CCN(C(=O)CC(F)(F)F)CC5)ccn4)[nH]c3c2)c1Cl | 33.7 |
| N#CC1(c2ccccn2)CCN(Cc2cc(C(=O)N3CCCC3)c(=O)n3ccccc23)CC1 | 46.8 |
| CN1CCN(C(=O)C(C)(C)c2ccc(C(=O)Nc3cn4cc(-c5cc(C(C)(C)C)cc(C(C)(C)C)c5)ccc4n3)cc2)CC1 | 54.4 |
| C[C@@H](c1cccc(C#N)c1)n1cc(Cl)cc(C(N)=O)c1=N | 1.2 |
| CC[C@H](CC(=O)O)n1c(=O)c2ncccc2n(Cc2cn(C)c3cc(C)cc(C)c23)c1=O | 95.9 |
| CC(=O)N1CCC(c2ccc(C(=O)NC3=NCCN3)cc2C(F)(F)F)CC1 | -13.9 |
| NS(=O)(=O)c1cc(NC(=O)Cc2ccccc2)ccc1Oc1cccc(Cl)c1 | 20.3 |
| CCC(F)(F)c1cc(N2CCC(S(C)(=O)=O)CC2)nc2sc(C(N)=O)c(N)c12 | 8.09 |
| O=S(=O)(NC1CCC(c2cc(F)ccc2F)(S(=O)(=O)c2ccc(Cl)cc2)CC1)C(F)(F)F (stereo not drawn) | 24.6 |
| Cc1noc([C@H]2C[C@@H](c3ccc(C(F)(F)F)cc3)CN(C(=O)N3CCS(=O)(=O)C3)C2)n1 | 7.69 |
| CCOc1ccc(S(=O)(=O)Nc2ccc(Cl)cc2C#Cc2cnc(C(=O)O)cc2OC)c2ncccc12 | -10.8 |
| COc1cc(C(=O)O)ncc1C#Cc1ccccc1NS(=O)(=O)c1cccc2c(N(C)C)ccnc12 | 11 |
| CN1CCN(c2cnc3c(C4CCN(C(=O)c5ccc(OC(F)(F)F)cc5N)CC4)ncnc3c2)CC1 | 9.37 |
| Nc1cnc(N2CCc3cc(S(=O)(=O)Nc4c(F)cc(Cl)cc4F)cc(N4CCCC4=O)c32)nc1 | 14.9 |
| CN(C)C(=O)c1sc2nc(N3CCC(S(C)(=O)=O)CC3)cc(C(F)(F)F)c2c1N | 9.53 |
| CO[C@H]1CC[C@H](CNc2ccc(S(=O)(=O)NC(=O)c3ccc(N4CCN(CC5=C(c6ccc(Cl)cc6)CC(C)(C)CC5)CC4)cc3Oc3cnc4[nH]ccc4c3)cc2[N+](=O)[O-])CC1 | -27.6 |
| CC(=O)Nc1ncc(CN2CCC[C@H](Cc3cc(C)nc(C)c3)C2)s1 | 75.1 |
| O=C(N[C@H]1CCCCC/C=C\C2C[C@@]2(C(=O)O)NC(=O)[C@@H]2C[C@@H](Oc3ccncc3)CN2C1=O)OC1CCCC1 (stereo partly drawn) | -10.6 |
| O=c1nc(-c2ccccn2)sc2ccccc12 | 1.65 |

Series 3 — effect on: enzyme activity; mode: inhibitor; concentration: 0.5 µM; baseline: control
SMILES: COc1ccc2c(c[n+](C)c3c4cc5c(cc4ccc23)OCO5)c1OC
| target | remaining activity [%] |
| --- | --- |
| BRSK1 (Homo sapiens, UniProt Q8TDC3) | 90.8 |
| ROCK2 (Homo sapiens, UniProt O75116) | 92.5 |
| PKN2 (Homo sapiens, UniProt Q16513) | 93.3 |
| DYRK4 (Homo sapiens, UniProt Q9NR20) | 95.1 |

Series 4 — target: CCND1, cyclin fold, Cln2 fusion (human); method: yeast growth competition, sequencing; matrix: yeast; setting: weak parent motif; baseline: not given; direction: higher = stronger binding; starting sequence: viral docking peptide; TSVRRALFTGGSD
| Variant | normalised enrichment score |
| --- | --- |
| G11I | 0.177 |
| V3S | -0.0772 |
| R5A L7A | -0.00818 |
| G10H | 0.0288 |
| F8P | 0.0738 |
| G10T | 0.179 |
| R5Y | 0.0958 |
| V3H | 0.117 |

Series 5 — cell line: HEK-293T/ACE2; concentration: concentration not given; time: 16 (unit not given); baseline: vehicle
| Compound | viability [%] |
| --- | --- |
| CN1CCC[C@@H]1Cc1c[nH]c2ccc(CCS(=O)(=O)c3ccccc3)cc12 | 101 |
| O=C1C(CC[S+]([O-])c2ccccc2)C(=O)N(c2ccccc2)N1c1ccccc1 (stereo not drawn) | 99.7 |
| Nc1nc(F)nc2c1ncn2[C@@H]1O[C@H](COP(=O)(O)O)[C@@H](O)[C@@H]1O | 100 |
| CCn1nc(C(=O)O)c(=O)c2cc3c(cc21)OCO3 | 102 |
| O=c1ccn([C@@H]2O[C@H](CO)[C@@H](O)[C@H]2O)c(=O)[nH]1 | 101 |

Other studies, line by line — cell line: mouse MPNST tumor cells; method: high-content nuclear imaging; refers to: cell number; concentration: 10 µM; time: 12 h; setting: mean of 2 replicates; baseline: plate mean; direction: higher = more cells
| SMILES | nuclei count [z-score] |
| --- | --- |
| CCCN(CCC)C1CCc2ccc(O)cc2C1 (stereo not drawn) | 2.33 |
| C#CCN(C)[C@H](C)Cc1ccccc1 | 0.318 |

For quick reference, copied from above (series 4):
| Variant | normalised enrichment score |
| --- | --- |
| G11I | 0.177 |
| V3S | -0.0772 |
| R5A L7A | -0.00818 |
| G10H | 0.0288 |
| F8P | 0.0738 |
| G10T | 0.179 |
| R5Y | 0.0958 |
| V3H | 0.117 |
